Assay results collected from several papers.
Numbered parts are unrelated; each lists some results of a single study. Changes are numbered by the printed parent chain.

Block 1 — target: CCND3, cyclin fold, Cln2 fusion (human); technique: yeast growth competition, sequencing; medium: yeast; notes: weak parent motif; baseline: not given; reading: higher = stronger binding; endpoint: normalised enrichment score
Parent: CDKN1A docking peptide (human); SKACRRLFGPVDS
SKAPRRLFGPVDS [C4P]: 0.215
SKAVRRLFGPVDS [C4V]: 0.29
SKACRRLFVPVDS [G9V]: 0.361
SKACRRLVGPVDS [F8V]: 0.301
SNACRRLFGPVDS [K2N]: 0.691
SKACRRLFGMVDS [P10M]: 0.18
SKACRQLFGPVDS [R6Q]: 0.141

Block 2 — technique: RNA Bind-n-Seq; form: RNA; medium: in vitro; tested at: 365 nM; baseline: no-protein control; reading: higher = stronger binding; endpoint: RBNS enrichment (R)
Target: RNA binding protein fox-1 homolog 2, RRM domain, GST-SBP tag (RBFOX2, Homo sapiens, UniProt O43251-10, residues 100-194)
Notes: natural RNA segment, single round, ends assumed
Residues (chain): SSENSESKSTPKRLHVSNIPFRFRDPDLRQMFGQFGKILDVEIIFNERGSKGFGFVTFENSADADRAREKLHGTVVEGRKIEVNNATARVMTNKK
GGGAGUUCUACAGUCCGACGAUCGGGCAAUUUGUUGAUGAGGUGAAUUAGUUAUCCCUCUUCUUGUAGAAGACCCUUUAGCUACCCCUCCUAUUGCUACUCGUGCACCUUCCAUUACACUCCCCCCUACCUUUUGGAAUUCUCGGGUGCCAA: 0.603
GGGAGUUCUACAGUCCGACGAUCUGCUAGAUUCACCUCACCCCGGGCAGGAGUGGGGAUGUGGGCGCUCUGUGGUCCUCCCCUCCUGACCCAGGCCUCUGUGGCAUGCUGCAAGGAUCAGAGCCAGACACCAGUGGAAUUCUCGGGUGCCAA: 2.81
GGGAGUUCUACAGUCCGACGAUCAACUAAUGGUUUUAACCUCCUUAACCACCAGCAUCCCUCCUCUCCCCAAGGUGAAGUGGAGGGUGCUGUGGUGAGCUGGCCACUCCAGAGCUGCAGUGCCACUGGAGGAGUGGAAUUCUCGGGUGCCAA: 0.314
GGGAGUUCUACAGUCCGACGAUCUUUUUUAAUGUGGGUCUCCCUCAGGGUUGUUUAAAGUUGUUUGUUUUCCUCCCUUACAUAUAAAUAAAUAAUGGUAACCGGUUUCUAUCUUGUAGCACCAACUGCUGUAAUGGAAUUCUCGGGUGCCAA: 0.83
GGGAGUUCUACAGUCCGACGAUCACAGACUCAGGUUUCUUUGGACCAAAUCCAAAAGAACACAUAGCUGUAACACAGCUGUAGCUGCCUAGAAUGCUCUGUAUACUUUAUAUUAAAAAUGCUCUGCAUUUCUUUGGAAUUCUCGGGUGCCAA: 0.228
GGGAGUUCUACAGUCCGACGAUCGGGGUGGGAUUGAAGGAAACCCUCUCCUCUCCCCUUCCCUUCUCUCUCCUGUCCAUGGGAAGCUUUUCCCCCUCUGCAGGGCUCCCUCAGCUGGACCAUCGUCCCUGCUUUGGAAUUCUCGGGUGCCAA: 0.334
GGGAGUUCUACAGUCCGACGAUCUCUUAAAUUUAUUUAAAACUUUUUUUAAUCCAGAUGUAGACUAUAUUCUAAAAAAUAAAAAAGCAAAUGUGUCAACUAAAUUGGACAAGCGUCUGGUCCUCAUUAAUCUGUGGAAUUCUCGGGUGCCAA: 0.67

Block 3 — technique: DHFR PCA, deep sequencing; medium: yeast; added: (+)-ABA 0.032 µM; baseline: wild-type fitted maximum; reading: higher = stronger binding; endpoint: relative binding score
Target: ABI1, truncated, D143A, DHFR fusion (Arabidopsis thaliana)
Notes: methotrexate growth selection, single substitutions
Parent: PYL1, truncated, DHFR fusion (Arabidopsis thaliana); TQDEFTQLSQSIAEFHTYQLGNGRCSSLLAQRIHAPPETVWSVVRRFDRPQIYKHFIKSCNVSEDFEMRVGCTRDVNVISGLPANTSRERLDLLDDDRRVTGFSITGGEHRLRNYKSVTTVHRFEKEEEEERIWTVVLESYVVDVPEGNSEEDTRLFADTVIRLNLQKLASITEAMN; partner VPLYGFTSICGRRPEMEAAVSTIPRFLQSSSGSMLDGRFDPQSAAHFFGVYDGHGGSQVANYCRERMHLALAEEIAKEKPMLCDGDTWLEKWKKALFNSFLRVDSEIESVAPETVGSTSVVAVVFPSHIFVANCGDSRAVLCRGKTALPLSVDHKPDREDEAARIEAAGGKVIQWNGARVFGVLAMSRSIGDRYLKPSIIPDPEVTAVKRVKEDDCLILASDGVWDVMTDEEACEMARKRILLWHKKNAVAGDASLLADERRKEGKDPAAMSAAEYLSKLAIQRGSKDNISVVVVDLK
V136N: 0.711%
L94V: 0.966%
S26H: 9.08%
D75Y: 23.5%
T1L: 25.3%

Further values, each from its own experiment
PhoQ, residues 284 288 289 292 302 303 GANMMA  fold induction (PhoP, residues 12 14 15 18 19 AGCRL (Escherichia coli, UniProt P23836); Sort-seq, measured: YFP reporter; E. coli; PhoQ-PhoP variant library, added: 10 µM Mg2+; baseline: high Mg2+ state, higher = stronger signaling): 6.37

A few entries again (block 2):
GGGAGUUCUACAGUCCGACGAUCUCUUAAAUUUAUUUAAAACUUUUUUUAAUCCAGAUGUAGACUAUAUUCUAAAAAAUAAAAAAGCAAAUGUGUCAACUAAAUUGGACAAGCGUCUGGUCCUCAUUAAUCUGUGGAAUUCUCGGGUGCCAA: 0.67
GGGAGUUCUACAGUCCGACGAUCUGCUAGAUUCACCUCACCCCGGGCAGGAGUGGGGAUGUGGGCGCUCUGUGGUCCUCCCCUCCUGACCCAGGCCUCUGUGGCAUGCUGCAAGGAUCAGAGCCAGACACCAGUGGAAUUCUCGGGUGCCAA: 2.81
